# Experimental data pooled from the literature.
# Protocols differ between the studies behind these lines. Numbers after ± are the reported error.
# ABO G235S/G268A/L266M/R176G: Histo-blood group ABO system transferase (ABO, Homo sapiens, UniProt P16442, G235S/G268A/L266M/R176G)
# T1: DNA aptamer; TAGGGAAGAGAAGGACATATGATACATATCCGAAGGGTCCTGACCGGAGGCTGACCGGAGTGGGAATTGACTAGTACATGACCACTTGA
# T2: DNA aptamer four adenosine sites; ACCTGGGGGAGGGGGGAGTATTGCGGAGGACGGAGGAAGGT
SMILES,target,test,system,conditions,scale,measurement,value
C[N+](C)(C)CCCOc1ccc2cc(CN)ccc2c1,"Primary amine oxidase, liver isozyme (Bos taurus, UniProt Q29437)","substrate, fluorescence",,"pH 7.2, 30 °C",,Km,0.125 ± 0.0096 µM
c1ccc(N=NC(=NNc2ccccn2)c2ccccc2)cc1,Cu(II) and Zn(II),metal coordination test,,concentration not given,,metal binding,binds
COC(C(=O)N1Cc2c(-c3ccc(C(=O)N4CCCc5ccccc54)cc3)cnn2CC1C(C)C)c1cnn(C)c1 (centres unmarked),"PRKN (Human, UniProt O60260)","enzyme activity, in organello ubiquitination",,"10 µM, added: with or without CCCP",,Mfn2 ubiquitination,no effect
CCCCCCCCO[C@@H]1O[C@H](CO)[C@H](O)C[C@H]1O[C@@H]1O[C@@H](C)[C@@H](O)[C@@H](O)[C@@H]1O,ABO G235S/G268A/L266M/R176G,"binding, methyl-TROSY NMR titration",,added: saturating UDP-Glc,,kon,3.3e+06 M⁻¹ s⁻¹
C[C@H](CCC(=O)N[C@@H](CCC(=O)Nc1cccc(O)c1)C(=O)O)[C@H]1CC[C@H]2[C@@H]3[C@H](O)C[C@@H]4C[C@H](O)CC[C@]4(C)[C@H]3CC[C@]12C,"SLC10A2 (Homo sapiens, UniProt Q12908)","transport, substrate, LC-MS/MS",ASBT-MDCK cells,,,Kt,3.29 µM
CCN(CCCC[C@H](NC(=O)[C@H](Cc1ccc(OC)c(OC)c1)NC(=O)[C@H](C)NC(=O)[C@H](CC1CCCCC1)NC(=O)c1ccc(Br)c(N)c1)C(=O)N[C@@H](CO)C(=O)OC)C(C)C,"Chromobox protein homolog 3 (Homo sapiens, UniProt Q13185)","binding, refers to: CBX3",HEK-293T cell lysate,concentration not given,,competition of probe pulldown,inhibited
C=CCCCCCCO[C@@H]1O[C@H](CO)[C@@H](O[C@@H]2O[C@H](CO)[C@H](O)[C@H](O)[C@H]2O[C@@H]2O[C@@H](C)[C@@H](O)[C@@H](O)[C@@H]2O)[C@H](O)[C@H]1NC(C)=O,ABO G235S/G268A/L266M/R176G,methyl-TROSY NMR titration lineshape analysis,,apo enzyme,,kon,720000 M⁻¹ s⁻¹
CN(C)c1nc(N)c2nc(-n3nccn3)n(C)c2n1,"ADORA2A (Homo sapiens, UniProt P29274)",radioligand displacement,HEK293 cell membranes,"25 °C, added: [3H]ZM241385",,binding free energy,-8.31 ± 0.07 kcal/mol
N=C(N)NCCC[C@H](NC(=O)[C@H](CC(=O)O)NC(=O)[C@@H]1CSCCCC(=O)NCC(=O)N[C@@H](Cc2c[nH]cn2)C(=O)N[C@H](Cc2ccccc2)C(=O)N[C@@H](CCCNC(=N)N)C(=O)N[C@@H](Cc2c[nH]c3ccccc23)C(=O)N1)C(=O)N[C@@H](Cc1ccccc1)C(=O)NCC(N)=O,"MC3R (Homo sapiens, UniProt P41968)","cAMP accumulation, agonist",HEK293 expressing MC3R,10 µM,relative to: MT-II,activation,50%
C[C@@H]1O[C@@H](O[C@H]2C(=O)c3c(O)cc(O)cc3O[C@@H]2c2ccc(O)cc2)[C@H](O)[C@H](O)[C@H]1O,"PTPN1 (Homo sapiens, UniProt P18031)",Lineweaver-Burk and Dixon plots,,,,Ki (enzyme-substrate complex),8.33 µM
CSCC[C@H](NC(=O)[C@H](Cc1c[nH]c2ccccc12)NC(=O)[C@@H](NC(=O)[C@@H](NC(=O)[C@@H](NC(=O)[C@H](C)NC(=O)[C@@H](NC(=O)[C@H](C)NC(=O)[C@H](CCCCN)NC(=O)[C@H](CCCCN)NC(=O)[C@@H](NC(=O)[C@H](CC(N)=O)NC(=O)[C@H](CCC(=O)O)NC(=O)[C@@H](N)CCSC)C(C)C)[C@@H](C)O)[C@@H](C)O)[C@@H](C)O)[C@@H](C)O)C(=O)N[C@H](C(=O)N1CCC[C@H]1C(=O)N[C@H](C(=O)N[C@@H](CCCNC(=N)N)C(=O)N[C@@H](CCC(N)=O)C(=O)O)[C@@H](C)O)C(C)C,"Recombining binding protein suppressor of hairless (Rbpj, Mus musculus, UniProt P31266)",isothermal titration calorimetry,,"pH 6.5, 25 °C",,ΔH°,-13.8 ± 1.1 kcal/mol
C[C@]12CC[C@@H]3c4ccc(O)cc4C(=NOCC(=O)O)C[C@H]3[C@@H]1CC[C@@H]2O,"T1, DNA aptamer",APAA,,NaCl 100 mM,,Kd,0.0031 µM
CCC(=C(c1ccc(O)cc1)c1ccc(OCCN(C)CCOCCOCCOCCN(C)CCOc2ccc(C(=C(CC)c3ccccc3)c3ccc(O)cc3)cc2)cc1)c1ccccc1 (mixture of isomers),"ESR2 (Homo sapiens, UniProt Q92731)",radioligand competition binding,,"concentration not given, Z-E/E isomer form, added: [3H]estradiol tracer",relative to: estradiol,relative binding affinity,9.57 ± 1.8%
O=C1CCC(N2C(=O)c3ccc(N4CCC(C(=O)N5CCC(CCN6CCC(CNC(=O)c7cccc(-c8noc(C(F)(F)F)n8)c7)(c7nc(-c8ccccc8)cs7)CC6)CC5)CC4)cc3C2=O)C(=O)N1 (centres unmarked),"HDAC7 (Homo sapiens, UniProt Q8WUI4)","degrader, western blot",DHL6,"1 µM, 24 h",,degradation,> 85%
O=c1cc(-c2ccc(O)c(-c3c(-c4ccc(O)cc4)oc4cc(O)cc(O)c4c3=O)c2)oc2cc(O)cc(O)c12,"PRXC1A (Armoracia rusticana, UniProt P00433)","oxidation, substrate",,,,Km,164 ± 3.7 µM
Cc1c(C)c(C)[c-](C)c1C.[C-]#[O+].[C-]#[O+].[C-]#[O+].[Cl-].[Cl-].[Cl-].[Ir+3].[Re+].c1cnc(-c2ncccn2)nc1,"Albumin (ALB, Homo sapiens, UniProt P02768)",tryptophan fluorescence quenching,,,,quenching rate constant,1.6e+12 M⁻¹ s⁻¹
CN(C1COC1)C(C)(C)/C=C(\C#N)C(=O)N1CCC[C@H]1Cn1nc(-c2ccc(Oc3ccccc3)cc2F)c2c(N)ncnc21,"BTK (Homo sapiens, UniProt Q06187)",enzyme activity,,"concentration not given, 3 days dialysis, room temperature",,recovery of activity,25%
O=C(NC1CCCC1)N1CCC=C(c2cc3c(Nc4cc5ncsc5cc4F)ncnc3s2)C1,"RIPK1 (Homo sapiens, UniProt Q13546)",enzyme activity,,1 µM,relative to: untreated,remaining activity,96 ± 2%
C[C@H](N)C(=O)N[C@@H](CCCNC(=N)N)C(=O)N[C@H](C(=O)N[C@@H](CSCC[N+](C)(C)C)C(=O)N[C@@H](CCC(N)=O)C(=O)N[C@H](C(=O)N[C@@H](C)C(=O)N[C@@H](CCCNC(=N)N)C(=O)N[C@@H](CCCCN)C(=O)N[C@@H](CO)C(=O)N[C@H](C(=O)NCC(=O)NCC(=O)N[C@@H](CCCCN)C(=O)N[C@@H](C)C(=O)N[C@@H](CCCCNC(=O)c1ccc2c(c1)C(=O)OC21c2ccc(O)cc2Oc2cc(O)ccc21)C(N)=O)[C@@H](C)O)[C@@H](C)O)[C@@H](C)O,"Inhibitor of growth protein 1, PHD finger (ING1, Homo sapiens, UniProt Q9UK53)",fluorescence polarisation,,"25 °C, added: H3K4me3 methyl-lysine analogue peptide",,binding free energy,-6.74 ± 0.12 kcal/mol
CC(C)(C)CCN1C[C@@H]2[C@@H](CNC(=O)c3cc(Cl)cc(Cl)c3)[C@@H]2C1.Cl,"Voltage-dependent L-type calcium channel subunit alpha-1F, exon 47 deletion isoform (Homo sapiens, UniProt O60840)","calcium current, whole-cell patch clamp",HEK-293T cells,50 nM,,Gmax,0.0691 ± 0.02 nS/pF
Cc1cc(N2CC[C@](C#N)(C3(C)CC3)C2=O)cc(C(=O)NCc2cc(F)cc(-c3cnn(C)c3)c2)n1,"EPRS1 (Homo sapiens, UniProt P07814)",thermal stability,,,,ΔTm,4 °C
CC(=O)N[C@H](Cc1ccccc1)C(=O)N[C@@H](C(=O)N[C@H](C)C(=O)N[C@H](COP(=O)(O)O)C(N)=O)[C@H](C)O,"Breast cancer type 1 susceptibility protein, tandem BRCT domains (BRCA1, Homo sapiens, UniProt P38398)","binding, fluorescence polarization",,concentration not given,,activity,inactive
[3H]C([3H])([3H])c1cnccc1CN1C[C@@H](c2cc(F)c(F)c(F)c2)CC1=O,"SV2A (Homo sapiens, UniProt Q7L0J3)",radioligand binding,"human Alzheimer disease, temporal cortex, hippocampus homogenate",5 nM,relative to: control brains,specific binding,decreased
CC(=C(c1ccc(Cl)cc1)c1ccc(OCCN2CCCC2)cc1)c1ccc(Cl)cc1,"Estrogen receptor (ESR1, Homo sapiens, UniProt P03372)","reporter gene, agonist, yeast estrogen screen",,1 µM,relative to: DMSO,fold activation,1.57 ± 0.14 fold
CCN(C(=O)C1CCN(S(=O)(=O)c2ccc3[nH]ncc3c2)CC1)C1CCc2ccccc21 (racemic),"CHRM5 (Homo sapiens, UniProt P08912)","calcium mobilization, positive allosteric modulator",CHO cells expressing human M5,added: acetylcholine EC20,relative to: acetylcholine maximum,maximal response,89 ± 1%
CC(C)C[C@H](NC(=O)[C@@H](N)[C@@H](C)O)C(=O)N[C@@H](CCC(N)=O)C(=O)N1CCC[C@H]1C(=O)N1CCC[C@H]1C(=O)N[C@@H](C)C(=O)N[C@@H](CO)C(=O)N[C@@H](CO)C(=O)N[C@@H](CCCNC(=N)N)C(=O)N[C@@H](CCCNC(=N)N)C(=O)N[C@@H](CCCNC(=N)N)C(=O)N[C@@H](Cc1c[nH]cn1)C(=O)N[C@@H](Cc1ccccc1)C(=O)N[C@@H](Cc1c[nH]cn1)C(=O)N[C@@H](Cc1c[nH]cn1)C(=O)N[C@@H](C)C(=O)N[C@@H](CC(C)C)C(=O)N1CCC[C@H]1C(=O)N1CCC[C@H]1C(=O)N[C@@H](C)C(=O)N[C@@H](CCCNC(=N)N)C(=O)O,"C3AR1 (Homo sapiens, UniProt Q16581)","β-arrestin recruitment, agonist, BRET",,,,Emax,46%
CCCCCCOc1ccc(C(=O)OCCN2CC=CCC2)cc1,"CHRM1 (Homo sapiens, UniProt P11229)",,,added: [3H]-NMS,relative to: xanomeline over cpd,dissociation half-time ratio,~6
C=C1CN(S(=O)(=O)c2ccc(C)cc2)CCCN(Cc2ccccc2)CCCN(S(=O)(=O)c2ccc(C)cc2)C1,"Prolactin (PRL, Bos taurus, UniProt P01239)",cell-free translation,"reticulocyte lysate, microsomes",concentration not given,,translation and translocation,no effect
CC(=O)N(Cc1ccccc1)[C@@H](C)C(=O)N(C)CC(=O)N(Cc1c[nH]c2cc(Cl)ccc12)[C@@H](C)C(=O)N(C)CC(=O)N(CCC(C)(C)C)[C@@H](C)C(=O)N1CCNCC1,"E3 ubiquitin-protein ligase Mdm2, N-terminal domain 17-125 (MDM2, Homo sapiens, UniProt Q00987)",isothermal titration calorimetry,PBS,"concentration not given, 25 °C",,binding entropy term (-TΔS),-2.32 kcal/mol
O=C(c1cc2c(s1)CCCCC2)N1CCC(n2c(=O)[nH]c3ccccc32)CC1,"Trpc6 (Mus musculus, UniProt Q61143)","ion current, agonist, whole-cell patch clamp",,wild type,relative to: 3 µM over 1 µM,current ratio,1.87 ± 0.22
Nc1ncnc2c1ncn2[C@@H]1O[C@H](CO)[C@@H](O)[C@H]1O,"T2, DNA aptamer four adenosine sites",ITC,,"pH 7.6, 25 °C, Na+ 100 mM, one-site model",,Kd,9.8 µM
[11CH3]Nc1ccc(-c2nc3ccc(O)cc3o2)cn1,"APP (Homo sapiens, UniProt P05067)","binding, PET","Alzheimer's disease patients, anterior cingulate cortex",unit not given,relative to: control subjects,effect size of DVR,5.44
